# Results collected from several papers.
# Parts stem from different laboratories: compare values within a part only. Positions count from the first letter of the parent shown.

# Set 1 — method: RNA Bind-n-Seq; form: RNA; medium: in vitro; tested at: 365 nM; relative to: no-protein control; direction: higher = stronger binding
# Target: RNA binding protein fox-1 homolog 2, RRM domain, GST-SBP tag (RBFOX2, Homo sapiens, UniProt O43251-10, residues 100-194)
# Setting: natural RNA segment, single round, ends assumed
# All sequences stand within: GGGAGUUCUACAGUCCGACGAUC … UGGAAUUCUCGGGUGCCAA
# Residues (chain): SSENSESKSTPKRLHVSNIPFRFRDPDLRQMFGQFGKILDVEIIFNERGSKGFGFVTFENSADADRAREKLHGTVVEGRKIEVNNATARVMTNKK
Oligonucleotide,RBNS enrichment (R)
AGCUAUGUGGAACGGUUCUUUUCAUCCCCUAGAUGAUGCUGGCACAGAAGGCAUUGUUCCCUACCCUCUGGCGAGUGCAUGCAGCAGAGAGUUAGACAGCAACUUACCUA,31.1
GUUAGGGAUGCUAAGAAGAGCCCACAAAUAGAGGAUUACUCUUCCCCUGAAUCUCUAAACUCAGAAACAAUUACCAAAAAAUACAUAACUCUUCCUUGUAGGGCCCUUUC,0.813
UGCAGAGAUUUUAUAUAUAUUUUGUUUGUAAUGAGCCAUUCUCAAUAAACAUUAUUCUCACUGCAAAUGGUGGUAGCCCCUGGCUGGCCUUUAUGAAGCUGUGUUGAUCU,0.434
UUUGUAGGUCUCUAAUAAAGAACUUUAUGUGGUCCUUCUACCUCUUGCUGUGAAGAACAGAGCCCACCCCAUAGCCUAAAUCUGUCCCUUCUAUUCCUUGUCCCCUCCCU,0.766
UUUUUAAUUUAAAGAUAAAAGCCUGUGUUUUACACAUUCUUUUUUGGUGUUCAUAGCUUCUUCUCAUACAGGUGCCAGACACUGUUUGUGCUUUUGAUGGAUUUUUAUUU,0.465
UUAAUCUACCUCUGUCUCUUUAACCACGCUGUCUCUGGACUGAGUGUCAGGAGGGAAGAGGGGAGUCUACGCUCACAACCCAGGCACUGGACAGCUGCAGCCUGGCUAGG,0.231
GAUCAGGGAAGCUGCUGGCAUCGUCCCCACCCCCAGCCUGGGGGUCUGGGCUGGGGCAGGGAUUGCUCAGUGGAAGCAGGACUGGGGGUCUGGCUUGCCCCCUCCCUGGG,0.345
CAUUGGCUCCAUCCCCUAGUCGCUGGACAGCUCUUUUUUUGAUUGGCUCAAAUCCUGUAAAGGGCUUGACCAGUCUCUACAUAGUCACCGUCCGCUUUUCCUGAGUUCUC,0.196
GCUUCCUUGGCUUGGGGGAGGGGGCAUCCGUCCCCCUCUGUGUGAACACAGCUCACCGCGUCACCUGAUGGAUGGCCCUACUGUGAAGGAAGAAAAAAGUUGGCAUUUCU,0.313
CUUAACCCUUGGCUCCACCAUAAGGCACUGGGACUCGGAUUUCUCUAUCUGAUAGAGGUAUUUUCUGUGGCCCUGGGAGCUGUCUGUCUUUCCCCUACCCCCAAGGAUGC,0.42
UUCCCAAUGUUGGAUAUUUCUACAUGAAUAAAGCAAGGAUCAGUGCCUCUUAUGUAAUUAACGCUCCUUGCUUUUGUGUAUGUAUGUGUGUUUGGGUUAUUCUUUACUUA,0.732
CAUUCUCUUUGUAGCUGAGUGCGUGGCUUUGAAAGUUGUGGAGGAAUUAAUACAGACACCAGAUUUUAGGCUUUGAAUUUGUUCUUAGUUGUUCAUUCCAGUCCUCUAAG,0.815

# Set 2 — target: CCNB2, cyclin fold, Cln2 fusion (human); method: yeast growth competition, sequencing; medium: yeast; setting: weak parent motif; relative to: not given; direction: higher = stronger binding
# Starting sequence: TICRR docking peptide (human); TKVRRNLFNQELL
Change,normalised enrichment score
L13A,0.698
Q10A,0.414
V3A,-0.139
F8L,0.623
K2A,1.47
R4A,-0.0704
N9A,1.34

# Set 3 — method: universal PBM; form: double-stranded DNA, one strand shown; medium: in vitro; tested at: 600 nM; direction: higher = stronger binding
# Target: Sal-like protein 4, full length isoform A (SALL4, Homo sapiens, UniProt Q9UJQ4, residues 1-1053)
# Chain of UniProt Q9UJQ4 (whole entry, looked up): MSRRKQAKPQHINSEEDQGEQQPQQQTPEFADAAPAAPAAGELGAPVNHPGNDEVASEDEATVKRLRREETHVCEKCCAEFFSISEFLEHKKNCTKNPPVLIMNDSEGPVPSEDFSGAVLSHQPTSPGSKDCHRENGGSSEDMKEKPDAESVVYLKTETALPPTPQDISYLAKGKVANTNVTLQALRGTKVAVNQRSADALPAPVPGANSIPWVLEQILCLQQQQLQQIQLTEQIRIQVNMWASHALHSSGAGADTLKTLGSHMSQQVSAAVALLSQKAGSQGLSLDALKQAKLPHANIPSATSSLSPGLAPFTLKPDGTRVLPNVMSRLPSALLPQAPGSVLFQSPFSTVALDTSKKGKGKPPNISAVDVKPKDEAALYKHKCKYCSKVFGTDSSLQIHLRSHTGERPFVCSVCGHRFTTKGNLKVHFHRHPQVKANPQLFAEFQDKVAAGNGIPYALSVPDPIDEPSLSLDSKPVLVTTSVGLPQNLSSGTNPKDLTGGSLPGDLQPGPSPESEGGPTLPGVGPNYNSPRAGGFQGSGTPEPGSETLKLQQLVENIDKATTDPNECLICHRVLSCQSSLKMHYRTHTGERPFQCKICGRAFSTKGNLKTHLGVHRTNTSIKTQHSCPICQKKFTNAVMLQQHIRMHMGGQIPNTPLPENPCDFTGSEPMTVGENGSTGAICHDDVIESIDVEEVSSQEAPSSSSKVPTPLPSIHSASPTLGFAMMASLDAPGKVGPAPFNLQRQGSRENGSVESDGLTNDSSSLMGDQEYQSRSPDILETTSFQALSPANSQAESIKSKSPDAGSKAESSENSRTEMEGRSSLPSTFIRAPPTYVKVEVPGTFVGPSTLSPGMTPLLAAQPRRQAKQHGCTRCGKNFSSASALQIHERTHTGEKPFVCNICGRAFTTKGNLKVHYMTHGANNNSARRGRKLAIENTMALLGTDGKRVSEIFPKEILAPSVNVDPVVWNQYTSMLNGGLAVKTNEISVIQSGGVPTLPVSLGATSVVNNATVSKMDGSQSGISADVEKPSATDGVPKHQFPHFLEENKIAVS
# Setting: 8-mer, flanks averaged, mean of replicates
Oligonucleotide,E-score
AACACGGA,-0.0169
CGTAAATC,0.0634
ATTTGTGA,0.224
CGAGCCAG,-0.236
GTTTGCAA,0.176
AAGAACCG,-0.0568
GTCAGCCA,-0.163
CGCTGTTA,-0.0208
ACGAAAGC,-0.0873
CAAGTGAG,-0.0995
GGTCGGCA,-0.245
GACGCACC,-0.243
ACCTAATA,0.286
AGAAGTAG,0.0443
CATACTTA,0.268
ATCCAGGC,-0.258
TATTCAGA,0.0928
CCATTCCA,-0.121
AAGTCCCC,-0.217
CATTAGGG,0.0246

# Set 4 — method: protein binding microarray; form: double-stranded DNA, one strand shown; medium: in vitro; tested at: not given; relative to: not given; direction: higher = stronger binding
# Target: Histone acetyltransferase KAT6A, both winged helices, GST fusion (KAT6A, Homo sapiens, UniProt Q92794, residues 1-181)
# Setting: 8-mer, flanks averaged, mean of 2 arrays, mostly near background
# Target sequence (chain): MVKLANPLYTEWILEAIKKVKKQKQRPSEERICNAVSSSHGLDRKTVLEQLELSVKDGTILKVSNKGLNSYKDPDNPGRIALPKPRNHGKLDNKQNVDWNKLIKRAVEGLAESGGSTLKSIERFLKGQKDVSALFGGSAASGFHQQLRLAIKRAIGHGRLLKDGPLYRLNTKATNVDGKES
Oligonucleotide,E-score
AGCAACCT,-0.0388
CGCATGTC,0.208
CCCAAACG,-0.0581
ATTTAGCC,0.0546
CCGGATGA,-0.0801
CCAATGCC,-0.00106
CTGAGACC,-0.0332
ATATTAAT,0.0664
ACGGGGTC,0.271
ATAGTGCG,0.223
ACGAGGCG,0.0839
ATACCAAG,0.0226
CGCCCTCC,0.129
AGCTATAG,-0.13
GCAACGTA,-0.0477
ATGTATAA,-0.0753
ACTCACCC,-0.12

# Set 5 — method: protein-binding microarray; form: double-stranded DNA, one strand shown; medium: in vitro; tested at: not given; direction: higher = stronger binding
# Target: Hepatocyte nuclear factor 3-beta, forkhead domain (FOXA2, Homo sapiens, UniProt Q9Y261, residues 142-269)
# Setting: k-mer, scored over probes, only values ≥0.25
# Target sequence (chain): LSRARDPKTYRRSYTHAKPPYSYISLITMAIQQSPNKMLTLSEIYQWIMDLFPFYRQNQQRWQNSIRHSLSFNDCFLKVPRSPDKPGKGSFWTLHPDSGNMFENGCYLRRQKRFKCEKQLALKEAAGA
Oligonucleotide,E-score
ATAACAGC,0.256
CATTTGTA,0.324
CTTATCCA,0.258
ATCGGAAT,0.251
AAAACAAT,0.271
TAACAACA,0.319
AGATACCA,0.299
ATTAAACA,0.301
ACGTAATG,0.288
TACTATAA,0.35
ACCAAACA,0.37
CTAATAAC,0.279
TATGCAAA,0.28
ATTGGTTA,0.293
ACAATAAC,0.272
CTAATATC,0.286
TAACATCA,0.281
ATATACAC,0.416
GTTATAAA,0.273
ATATAGTA,0.345
TAGTAACA,0.351
AACGGATA,0.258
TACTTCAA,0.269
ATATAGTG,0.338
AATGATTA,0.334

# Set 6 — method: protein-binding microarray; form: double-stranded DNA, one strand shown; medium: in vitro; tested at: 940 nM top; setting: 60-bp whole probe; added: salmon DNA 0.4 mg/ml; relative to: random background probes; direction: higher = stronger binding; all sequences stand within: GCCTAGCAC … GTCTTGATTCGCTTGACGCTGCTG
# Target: Interferon regulatory factor 5, full length, phosphomimetic (IRF5, Homo sapiens, UniProt Q13568-2, residues 1-514, S451D/S453D/S456D/S462D)
Oligonucleotide,fitted relative affinity
TTAGATTTCATTCTCGATTAGTGCTAG,3.58 z-score
CACAGAATCCCCTTCTACTCGTGCTAG,0.441 z-score
TGAGGACTGGGTATCGGTTAGTGCTAG,3.29 z-score
GACGAACTGAGGCTCGAGACGTGCTAG,-0.349 z-score
TTAGGTTTCCCTATCCTTTAGTGCTAG,2.62 z-score
GACGGACTGCTTAACCTGACGTGCTAG,-0.396 z-score
GAAGGTTCCGGTTTCGGGACGTGCTAG,4.82 z-score
ATAGGTATCGACTATCGGTTAGTGCTA,5.59 z-score
ATAGGTATCGGGTATCGGTTAGTGCTA,6.38 z-score
GACGCTCTCGGACTGGGGACGTGCTAG,1.01 z-score
TTAGGTTTCGGACTGTGTTAGTGCTAG,7.36 z-score
GACGATCTCAGTCTGGAGACGTGCTAG,-0.106 z-score
GAGGCAAGGAGGGAGAACAGGTGCTAG,-0.862 z-score
TTGTGTCTGGGATTTTGTCCGTGCTAG,-0.494 z-score
CACGGTCTCCTTCTCCTGACGTGCTAG,0.558 z-score
GACAGTCTCGGTATCGGGACGTGCTAG,6.58 z-score
CTTGCTACACATCTCACTCTGTGCTAG,0.873 z-score

# Excerpt of the above (set 1):
Oligonucleotide,RBNS enrichment (R)
AGCUAUGUGGAACGGUUCUUUUCAUCCCCUAGAUGAUGCUGGCACAGAAGGCAUUGUUCCCUACCCUCUGGCGAGUGCAUGCAGCAGAGAGUUAGACAGCAACUUACCUA,31.1
GUUAGGGAUGCUAAGAAGAGCCCACAAAUAGAGGAUUACUCUUCCCCUGAAUCUCUAAACUCAGAAACAAUUACCAAAAAAUACAUAACUCUUCCUUGUAGGGCCCUUUC,0.813
UGCAGAGAUUUUAUAUAUAUUUUGUUUGUAAUGAGCCAUUCUCAAUAAACAUUAUUCUCACUGCAAAUGGUGGUAGCCCCUGGCUGGCCUUUAUGAAGCUGUGUUGAUCU,0.434
UUUGUAGGUCUCUAAUAAAGAACUUUAUGUGGUCCUUCUACCUCUUGCUGUGAAGAACAGAGCCCACCCCAUAGCCUAAAUCUGUCCCUUCUAUUCCUUGUCCCCUCCCU,0.766
UUUUUAAUUUAAAGAUAAAAGCCUGUGUUUUACACAUUCUUUUUUGGUGUUCAUAGCUUCUUCUCAUACAGGUGCCAGACACUGUUUGUGCUUUUGAUGGAUUUUUAUUU,0.465
